Measurements of several laboratories.
Numbers after ± are the reported error.
GLP1R: Glucagon-like peptide 1 receptor (GLP1R, Homo sapiens, UniProt P43220)
Chain of UniProt P43220 (whole entry, looked up): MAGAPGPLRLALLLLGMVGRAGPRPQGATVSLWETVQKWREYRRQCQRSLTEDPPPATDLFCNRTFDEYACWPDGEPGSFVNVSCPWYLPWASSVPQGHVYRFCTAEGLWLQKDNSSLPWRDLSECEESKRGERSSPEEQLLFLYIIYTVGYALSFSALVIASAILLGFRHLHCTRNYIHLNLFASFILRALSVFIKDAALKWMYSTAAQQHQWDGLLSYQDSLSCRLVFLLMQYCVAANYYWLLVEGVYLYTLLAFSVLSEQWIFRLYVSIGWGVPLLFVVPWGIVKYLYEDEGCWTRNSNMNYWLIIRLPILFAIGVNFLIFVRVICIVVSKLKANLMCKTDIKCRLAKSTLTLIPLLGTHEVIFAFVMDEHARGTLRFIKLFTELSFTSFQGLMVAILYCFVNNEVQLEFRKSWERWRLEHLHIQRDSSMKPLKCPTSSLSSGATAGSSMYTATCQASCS
Chain of UniProt O60840 (whole entry, unmodified, looked up): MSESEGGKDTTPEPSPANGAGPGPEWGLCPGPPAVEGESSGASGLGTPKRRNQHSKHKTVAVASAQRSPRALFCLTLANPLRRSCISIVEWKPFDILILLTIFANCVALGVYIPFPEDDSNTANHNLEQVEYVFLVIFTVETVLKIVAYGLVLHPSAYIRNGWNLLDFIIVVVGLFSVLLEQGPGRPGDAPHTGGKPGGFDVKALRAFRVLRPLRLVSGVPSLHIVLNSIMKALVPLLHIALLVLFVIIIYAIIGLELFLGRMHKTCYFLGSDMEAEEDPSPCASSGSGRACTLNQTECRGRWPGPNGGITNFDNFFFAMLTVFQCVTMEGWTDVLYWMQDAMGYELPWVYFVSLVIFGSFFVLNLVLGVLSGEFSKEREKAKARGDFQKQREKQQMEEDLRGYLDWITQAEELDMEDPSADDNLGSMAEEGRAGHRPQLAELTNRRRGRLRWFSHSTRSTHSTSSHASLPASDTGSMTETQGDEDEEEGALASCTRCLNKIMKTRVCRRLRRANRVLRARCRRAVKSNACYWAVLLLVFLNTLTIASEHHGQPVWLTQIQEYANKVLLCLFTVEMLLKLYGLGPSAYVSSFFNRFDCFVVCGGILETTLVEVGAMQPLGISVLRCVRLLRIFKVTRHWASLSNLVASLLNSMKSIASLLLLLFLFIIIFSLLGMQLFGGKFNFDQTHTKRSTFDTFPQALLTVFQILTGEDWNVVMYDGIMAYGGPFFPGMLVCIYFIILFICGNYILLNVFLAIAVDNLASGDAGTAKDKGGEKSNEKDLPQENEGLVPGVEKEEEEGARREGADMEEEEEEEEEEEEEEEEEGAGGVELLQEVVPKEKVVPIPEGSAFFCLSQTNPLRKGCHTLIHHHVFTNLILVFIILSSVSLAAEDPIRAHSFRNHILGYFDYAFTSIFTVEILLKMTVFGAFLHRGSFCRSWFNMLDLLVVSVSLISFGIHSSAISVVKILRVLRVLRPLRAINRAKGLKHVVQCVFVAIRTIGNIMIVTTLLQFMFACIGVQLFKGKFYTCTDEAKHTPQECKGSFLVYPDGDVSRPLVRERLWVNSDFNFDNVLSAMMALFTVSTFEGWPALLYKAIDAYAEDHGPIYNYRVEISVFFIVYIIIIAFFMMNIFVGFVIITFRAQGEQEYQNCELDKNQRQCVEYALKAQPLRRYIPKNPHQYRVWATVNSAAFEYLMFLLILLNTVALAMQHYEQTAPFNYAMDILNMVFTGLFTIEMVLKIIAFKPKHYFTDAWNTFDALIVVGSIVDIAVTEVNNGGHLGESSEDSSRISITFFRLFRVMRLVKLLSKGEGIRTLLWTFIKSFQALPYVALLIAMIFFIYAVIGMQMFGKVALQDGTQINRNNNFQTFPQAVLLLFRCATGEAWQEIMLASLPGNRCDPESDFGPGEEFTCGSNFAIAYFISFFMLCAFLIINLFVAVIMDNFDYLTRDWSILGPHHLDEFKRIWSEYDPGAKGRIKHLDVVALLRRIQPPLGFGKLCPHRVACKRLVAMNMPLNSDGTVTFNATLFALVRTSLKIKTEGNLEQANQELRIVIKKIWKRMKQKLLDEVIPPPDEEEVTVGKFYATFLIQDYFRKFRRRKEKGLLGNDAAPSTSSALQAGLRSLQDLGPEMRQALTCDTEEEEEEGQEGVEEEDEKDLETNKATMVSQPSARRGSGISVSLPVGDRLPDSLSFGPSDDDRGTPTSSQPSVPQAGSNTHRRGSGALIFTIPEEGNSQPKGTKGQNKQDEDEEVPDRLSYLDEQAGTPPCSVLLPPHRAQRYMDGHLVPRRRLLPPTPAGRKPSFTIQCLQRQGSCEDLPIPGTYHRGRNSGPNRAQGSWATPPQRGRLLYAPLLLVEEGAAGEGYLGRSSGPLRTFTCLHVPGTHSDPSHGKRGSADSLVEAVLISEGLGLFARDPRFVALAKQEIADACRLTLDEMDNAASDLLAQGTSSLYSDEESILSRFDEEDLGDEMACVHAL
Chain of UniProt P31153 (whole entry, looked up): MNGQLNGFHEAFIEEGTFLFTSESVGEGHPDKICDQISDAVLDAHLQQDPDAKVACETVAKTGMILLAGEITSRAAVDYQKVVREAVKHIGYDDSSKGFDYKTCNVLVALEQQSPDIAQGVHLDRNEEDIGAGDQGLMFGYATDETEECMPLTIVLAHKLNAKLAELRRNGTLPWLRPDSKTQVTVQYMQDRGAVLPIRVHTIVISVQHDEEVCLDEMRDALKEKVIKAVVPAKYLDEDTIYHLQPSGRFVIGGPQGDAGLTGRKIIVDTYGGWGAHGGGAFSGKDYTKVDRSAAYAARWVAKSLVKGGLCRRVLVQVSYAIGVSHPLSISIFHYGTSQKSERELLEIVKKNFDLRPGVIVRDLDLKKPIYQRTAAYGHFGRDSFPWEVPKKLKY
Chain of UniProt P48775 (whole entry, looked up): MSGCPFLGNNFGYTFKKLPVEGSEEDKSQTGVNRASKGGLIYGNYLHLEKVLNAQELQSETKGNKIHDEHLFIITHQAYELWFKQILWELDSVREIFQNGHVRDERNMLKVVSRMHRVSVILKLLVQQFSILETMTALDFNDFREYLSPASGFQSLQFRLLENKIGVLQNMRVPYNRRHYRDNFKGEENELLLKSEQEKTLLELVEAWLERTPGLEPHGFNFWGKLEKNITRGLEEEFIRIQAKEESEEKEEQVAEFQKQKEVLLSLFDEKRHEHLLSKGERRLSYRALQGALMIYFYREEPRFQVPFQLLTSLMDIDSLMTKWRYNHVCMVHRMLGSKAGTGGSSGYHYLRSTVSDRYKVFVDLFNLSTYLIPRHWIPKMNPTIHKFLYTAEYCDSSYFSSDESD
Chain of UniProt P10275 (whole entry, looked up): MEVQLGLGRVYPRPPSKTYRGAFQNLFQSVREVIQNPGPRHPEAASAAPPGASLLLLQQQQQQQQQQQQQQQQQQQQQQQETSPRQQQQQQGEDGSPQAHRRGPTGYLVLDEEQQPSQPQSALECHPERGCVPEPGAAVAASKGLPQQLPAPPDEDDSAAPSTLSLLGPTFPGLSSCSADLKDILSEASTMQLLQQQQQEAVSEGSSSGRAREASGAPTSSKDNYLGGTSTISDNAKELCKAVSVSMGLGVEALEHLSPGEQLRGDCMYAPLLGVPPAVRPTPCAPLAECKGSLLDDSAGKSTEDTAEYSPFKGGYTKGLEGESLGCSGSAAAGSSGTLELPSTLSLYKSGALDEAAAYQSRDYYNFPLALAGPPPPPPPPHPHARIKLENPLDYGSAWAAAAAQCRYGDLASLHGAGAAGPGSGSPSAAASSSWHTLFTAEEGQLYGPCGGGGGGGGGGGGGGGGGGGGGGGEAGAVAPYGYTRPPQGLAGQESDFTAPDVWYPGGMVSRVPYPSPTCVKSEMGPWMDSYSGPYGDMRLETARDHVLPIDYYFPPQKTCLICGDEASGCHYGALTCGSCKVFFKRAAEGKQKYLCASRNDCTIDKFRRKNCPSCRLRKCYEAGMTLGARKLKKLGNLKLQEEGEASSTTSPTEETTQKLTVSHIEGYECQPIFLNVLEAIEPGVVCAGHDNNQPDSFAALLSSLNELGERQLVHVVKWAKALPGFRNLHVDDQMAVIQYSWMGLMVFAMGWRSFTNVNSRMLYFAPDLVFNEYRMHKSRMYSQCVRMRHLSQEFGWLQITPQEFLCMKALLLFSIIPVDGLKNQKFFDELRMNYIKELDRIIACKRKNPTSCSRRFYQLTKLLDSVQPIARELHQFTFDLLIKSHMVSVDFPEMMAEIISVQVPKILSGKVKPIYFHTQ
Chain of UniProt P35869 (whole entry, looked up): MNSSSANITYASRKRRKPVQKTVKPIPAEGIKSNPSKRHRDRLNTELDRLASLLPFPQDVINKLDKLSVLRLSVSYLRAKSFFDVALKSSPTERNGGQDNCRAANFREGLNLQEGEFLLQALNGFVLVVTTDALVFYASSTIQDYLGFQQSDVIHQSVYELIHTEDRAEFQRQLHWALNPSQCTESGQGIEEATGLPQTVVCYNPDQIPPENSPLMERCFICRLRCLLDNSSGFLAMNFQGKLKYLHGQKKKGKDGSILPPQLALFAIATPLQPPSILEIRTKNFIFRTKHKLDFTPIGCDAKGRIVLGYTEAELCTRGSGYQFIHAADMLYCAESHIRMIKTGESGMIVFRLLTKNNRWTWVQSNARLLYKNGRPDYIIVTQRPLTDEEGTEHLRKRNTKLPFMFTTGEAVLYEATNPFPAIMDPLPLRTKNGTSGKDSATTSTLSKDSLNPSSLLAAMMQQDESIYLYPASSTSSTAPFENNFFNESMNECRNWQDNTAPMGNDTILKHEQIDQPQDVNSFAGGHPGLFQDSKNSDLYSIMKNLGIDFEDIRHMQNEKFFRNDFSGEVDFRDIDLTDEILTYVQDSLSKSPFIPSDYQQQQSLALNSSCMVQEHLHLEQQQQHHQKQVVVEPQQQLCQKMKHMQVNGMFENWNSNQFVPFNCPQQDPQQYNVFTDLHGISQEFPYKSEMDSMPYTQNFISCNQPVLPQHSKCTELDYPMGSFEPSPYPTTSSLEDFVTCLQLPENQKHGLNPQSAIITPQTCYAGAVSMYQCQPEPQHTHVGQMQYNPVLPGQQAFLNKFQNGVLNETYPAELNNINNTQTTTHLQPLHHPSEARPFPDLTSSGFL

For `COc1ccc(CNc2nc(-c3ccc(OC)c(OC)c3)cc(C(F)(F)F)n2)cc1`, the Emax was 54 ± 4.3% (GLP1R; cAMP accumulation, positive allosteric modulator; HEK-293T overexpressing GLP1R; together with: EC20 GLP-1).
With `CCCCCCCCCSc1nc2c([nH]1)c(=S)n(C)c(=O)n2C` the remaining activity was 71% (Androgen receptor (AR, Homo sapiens, UniProt P10275); reporter gene, antagonist, PSA-luciferase; HeLa-A6; 10 µM, 24 h, together with: 5 nM dihydrotestosterone; reference: maximal activity).
`COC1CCC(N(C(=O)C2CCC(C)CC2)c2cc(C3=CCCCC3)sc2C(=O)O)CC1` (stereo not drawn) — result for O-GlcNAcylation: “no effect” (Probable UDP-N-acetylglucosamine--peptide N-acetylglucosaminyltransferase SEC, 5-TPR truncated construct (SEC, Arabidopsis thaliana, UniProt Q9M8Y0); 100 µM, together with: UDP-GlcNAc 200 µM).
`Cc1cc(=O)c(O)c(CN2CCSCC2)n1C` gave a ligand efficiency of 0.42 (TDO2 (Homo sapiens, UniProt P48775)).
`CC(C)C[C@H](NC(=O)[C@H](Cc1ccccc1)NC(=O)OCc1ccccc1)C(=O)N1CCC[C@H]1C(=O)N[C@@H](CCCCNC(=O)OC(C)(C)C)C(N)=O` gave a luminescence of 75 ± 6% (Fibroblast growth factor 14, with Nav1.6 (Homo sapiens, UniProt Q92915); FGF14-Nav1.6 complex formation, split-luciferase complementation; HEK293 expressing CLuc-FGF14 and CD4-Nav1.6-NLuc; 50 µM, 1 h, 37 °C, 0.5% DMSO; reference: DMSO).
`Nc1ncnc2c1ncn2C1OC(COP(=O)(O)OP(=O)(O)OCC2OC(O)C(O)C2O)C(O)C1O` (stereo not drawn): “EC50 fold increase” ~20 fold (TRPM2 (Nematostella vectensis, UniProt A7T1N0, T307A); channel activation, agonist, inside-out patch clamp; T307A, 2.5 µM PIP2, together with: 125 µM Ca2+; reference: wild type).
Under “fold shift of EC50”, `CC(C)(Cn1cc(-c2cnc3cccnn23)nn1)c1c[nH]c2ccccc12` is recorded as 4 fold (GLP1R; positive allosteric modulator, refers to: cAMP; CHO-K1 expressing GLP1R; concentration not given, together with: GLP-1(7-36); reference: GLP-1 alone).
`CC(C)(C)CCN1C[C@@H]2[C@@H](CNC(=O)c3cc(Cl)cc(Cl)c3)[C@@H]2C1.Cl`: “activation slope factor k” 9.02 ± 1.84 mV (Voltage-dependent L-type calcium channel subunit alpha-1F (Homo sapiens, UniProt O60840, M1004A); calcium current, whole-cell patch clamp; HEK-293T cells; 100 µM).
The fold activation of `CCC(=O)N(C)c1ccc(Cl)c(Cl)c1` is reported as 1.09 fold (AHR (Homo sapiens, UniProt P35869); reporter gene, agonist; 0.32 µM; reference: vehicle).
`COc1c(F)c(F)c(C(=O)N[C@H]2[C@@H](O)[C@@H](CO)O[C@@H](S[C@@H]3O[C@H](CO)[C@H](O)[C@H](NC(=O)c4c(F)c(F)c(OC)c(F)c4F)[C@H]3OS(=O)(=O)O)[C@@H]2O)c(F)c1F` has a ΔG of -38.5 ± 0.5 kJ/mol (Galectin-3 (LGALS3, Homo sapiens, UniProt P17931); ITC; Kd fixed from FP).
`Nc1ncnc2c1ncn2[C@@H]1O[C@H](COP(=O)(O)OP(=O)(O)NP(=O)(O)O)[C@@H](O)[C@H]1O` — result for “AdoMet burst rate constant”: 0.021 ± 0.007 s⁻¹ (MAT2A (Homo sapiens, UniProt P31153); substrate; enzyme 25 µM, together with: methionine).
For `CC(=O)c1ccc(NC(=O)c2nc(-c3ccccc3)n(-c3ccc(Cl)cc3)n2)cc1`, “cell surface receptor level” read “increased” (CNR1 (Homo sapiens, UniProt P21554); HEK293 expressing CB1-GFP; 10 µM, 6 h; reference: untreated).

Some of these lines once more:
For `CC(=O)c1ccc(NC(=O)c2nc(-c3ccccc3)n(-c3ccc(Cl)cc3)n2)cc1`, “cell surface receptor level” read “increased” (CNR1 (Homo sapiens, UniProt P21554); HEK293 expressing CB1-GFP; 10 µM, 6 h; reference: untreated).
